Experimental data of several laboratories.
Lines come from different studies, so protocols differ. Values joined by “and” are separate records of one study, mostly repeats; a detail may differ. ± gives the spread as reported.

Compound	target	test	test system	setting	IC50
CC(C)c1cnc(-c2cc(Cl)ccc2F)cc1Nc1ccncc1C(=O)NC(CO)CO	TGF-β receptor type 1 (human)	SMAD2 Ser465/467 phosphorylation, inhibitor	MDA-MB-231	unbound drug, together with: TGF-β	0.0173 ± 0.00077 µM
COc1cc(/C=C/c2ccc(N)cc2)cc(OC)c1OC	human ornithine decarboxylase	enzyme activity, inhibitor	T24	together with: TPA	13.1 ± 2.6 µM
CCCCC/C=C/C(=O)CCc1ccc(O)c(OC)c1	mAb 6-AT6	antibody binding, indirect competitive ELISA		together with: coating antigen 5-OVA	2.93 µg/mL
COCCNc1nc(-c2nccn2C)nc2sc(-c3cccc(OC)c3Cl)c(-c3ccccc3)c12	Ras	Ras-GTP formation, inhibitor, GTP pull-down	MIA PaCa-2	6 h, together with: EGF 15 min	1 to 3 µM
COc1cc(CCC(C)=O)ccc1O	mAb 6-AT6	antibody binding, indirect competitive ELISA		together with: coating antigen 1-OVA	> 4 µg/mL
Oc1cc(C(F)(F)F)ccc1-c1nc2c(C(F)(F)F)cc(C(F)(F)F)cc2[nH]1	NF-κB (human)	reporter gene, inhibitor	HEK293 NF-κB luciferase reporter	together with: TNFα	0.209 ± 0.11 µM
Nc1nc2c(N)[n+]3cnc2n1[C@@H]1O[C@H](COP(=O)([O-])OP(=O)(O)OC[C@H]2O[C@@H]3[C@H](O)[C@@H]2O)[C@@H](O)[C@H]1O	cADPR receptor	Ca2+ release, antagonist	permeabilised Jurkat T cells	together with: cADPR	1 µM
O=C(Cc1ccccc1)Nc1nc2ccccc2n1Cc1ccccc1	HIF-1α	HRE reporter gene, inhibitor	MDA-MB-231-Luc	48 h, hypoxia 1% O2	~2.2 µM and 2.2 µM
COC1CCC(Nc2nc(-c3nccn3C)nc3sc(-c4ccn(C)n4)c(-c4ccccc4)c23)C1 (stereo not shown)	Ras	Ras-GTP complex formation, inhibitor, GTP pull-down	PANC-1	6 h, together with: EGF 15 min	1 to 3 µM
Oc1ccc(Cl)cc1-c1nc2c(Cl)cc(Cl)cc2[nH]1	NF-κB (human)	reporter gene, inhibitor	HEK293 NF-κB luciferase reporter	together with: TNFα	10.2 ± 3.97 µM

Repeated from above:
Compound	target	test	test system	setting	IC50
COCCNc1nc(-c2nccn2C)nc2sc(-c3cccc(OC)c3Cl)c(-c3ccccc3)c12	Ras	Ras-GTP formation, inhibitor, GTP pull-down	MIA PaCa-2	6 h, together with: EGF 15 min	1 to 3 µM
